Results of several laboratories.
A part holds a random share of what one study measured.

Set 1
Target: Centromere-binding protein 1, full length, N-terminal tag (CBF1, Saccharomyces cerevisiae, UniProt P17106, residues 1-351)
Sequence of UniProt P17106 (whole entry, looked up): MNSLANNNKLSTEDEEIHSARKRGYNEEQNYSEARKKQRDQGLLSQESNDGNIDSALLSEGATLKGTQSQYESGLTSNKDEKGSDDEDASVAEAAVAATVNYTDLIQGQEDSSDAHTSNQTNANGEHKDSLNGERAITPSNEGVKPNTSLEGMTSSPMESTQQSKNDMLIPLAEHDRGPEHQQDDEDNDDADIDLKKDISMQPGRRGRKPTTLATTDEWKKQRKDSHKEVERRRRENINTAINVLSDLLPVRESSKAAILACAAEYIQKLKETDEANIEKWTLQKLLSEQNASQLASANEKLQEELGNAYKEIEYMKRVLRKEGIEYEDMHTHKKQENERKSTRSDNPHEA
Method: protein-binding microarray
Form: double-stranded DNA, one strand shown
Medium: in vitro
Tested at: 0.8 µM
Setting: whole 60-bp probe, no competitor
Reading: higher = stronger binding
For `GAATTCTATGTGTATCACCTGTTATACGTGTTGTAGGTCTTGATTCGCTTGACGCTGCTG`, the fluorescence intensity was 789 a.u.
With `CTAGCAGTAATTCTCCACATGGGCCCAGCCACTTTCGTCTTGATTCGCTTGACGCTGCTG` the fluorescence intensity was 488 a.u.
With `CTATCGAATAAATATCACATGTAACTTGAAGGTTTCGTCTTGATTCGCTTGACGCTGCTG` the fluorescence intensity was 1790 a.u.
`GAAATCATAATCATAATCGTGATATTGTACCAGTAGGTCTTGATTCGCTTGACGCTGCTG` has a fluorescence intensity of 569 a.u.
`CTATGAGTGTCCGCTGTGATGATGATAGCGGATTTCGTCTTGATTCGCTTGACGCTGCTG` has a fluorescence intensity of 527 a.u.
For `GAATTAAACAGGCATTACGTGGTGAACTCCAAGTAGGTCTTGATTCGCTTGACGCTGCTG`, the fluorescence intensity was 523 a.u.
`CCTAACTACTATACGCACGAACGATAGCTTCGTACAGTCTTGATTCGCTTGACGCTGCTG` has a fluorescence intensity of 540 a.u.
With `CTACGAACTTCCCATCAGCAGAGCATGCAATTTTTCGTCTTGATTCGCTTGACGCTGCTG` the fluorescence intensity was 539 a.u.
With `GAAATCAATTCCCATCACGTACCTTGCTTTCTATAGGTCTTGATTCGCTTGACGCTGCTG` the fluorescence intensity was 698 a.u.
With `CCTAACTACTATATTCATGTCACATAGCTTCGTACAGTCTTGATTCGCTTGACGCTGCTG` the fluorescence intensity was 609 a.u.
For `CTATTATTTTCGTCAGGCGTGATATCAGCGAGTTTCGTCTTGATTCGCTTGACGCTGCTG`, the fluorescence intensity was 750 a.u.
The fluorescence intensity of `GAAATTTTCTAAGTTGGTCAGCTGTAATCTATCTAGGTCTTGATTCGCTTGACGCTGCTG` is reported as 627 a.u.
The fluorescence intensity of `GAAAATAGACGTAGCCACATGCAGCCTTTAATATAGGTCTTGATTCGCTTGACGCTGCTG` is reported as 552 a.u.
For `CTATATATTTCTTTTCATCACGTGCTATAAAAATTCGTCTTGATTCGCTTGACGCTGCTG`, the fluorescence intensity was 20100 a.u.
The fluorescence intensity of `CTAATATAAATGGGCCTGATGTTCGTTAAAAGCTTCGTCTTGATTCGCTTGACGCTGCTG` is reported as 527 a.u.
With `GAACACTCTTCCCGTGATGCGAATGGTAAAGAATAGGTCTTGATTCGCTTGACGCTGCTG` the fluorescence intensity was 1300 a.u.
The fluorescence intensity of `GAACCACGATGATCGCACGTGCCGGCATTTATATAGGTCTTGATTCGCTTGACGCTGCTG` is reported as 8290 a.u.
For `CTAAACACGAGATATTGCATGACCTCCACACACTTCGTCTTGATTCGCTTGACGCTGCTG`, the fluorescence intensity was 632 a.u.
`CTACACCTTCCTTAGCACGGGTTCTTGCTGTCTTTCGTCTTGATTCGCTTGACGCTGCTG` gave a fluorescence intensity of 745 a.u.

Set 2
Target: Interferon regulatory factor 7, full length, phosphomimetic (IRF7, Homo sapiens, UniProt Q92985, residues 1-503, S471D/S472D/S475D/S476D/S477D/S483D/S484D/S487D)
Sequence of UniProt Q92985 (whole entry, unmodified, looked up): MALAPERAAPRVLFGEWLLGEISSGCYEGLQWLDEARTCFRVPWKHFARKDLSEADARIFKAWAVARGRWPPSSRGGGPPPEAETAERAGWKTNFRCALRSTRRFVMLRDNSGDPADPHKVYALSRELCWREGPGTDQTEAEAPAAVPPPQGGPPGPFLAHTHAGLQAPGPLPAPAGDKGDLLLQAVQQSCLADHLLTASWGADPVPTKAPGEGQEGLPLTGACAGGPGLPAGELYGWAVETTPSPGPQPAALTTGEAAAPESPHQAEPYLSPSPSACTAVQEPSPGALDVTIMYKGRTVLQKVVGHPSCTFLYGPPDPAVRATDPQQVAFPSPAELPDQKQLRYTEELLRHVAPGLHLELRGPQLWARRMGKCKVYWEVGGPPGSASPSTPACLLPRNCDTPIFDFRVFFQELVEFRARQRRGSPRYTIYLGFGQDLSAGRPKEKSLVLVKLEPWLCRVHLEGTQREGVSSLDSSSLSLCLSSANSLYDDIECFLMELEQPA
Method: protein-binding microarray
Form: double-stranded DNA, one strand shown
Medium: in vitro
Tested at: 2200 nM top
Setting: 60-bp whole probe
With: salmon DNA 0.4 mg/ml
Baseline: random background probes
Reading: higher = stronger binding
Constant ends, left off below: GCCTAGCAC … GTCTTGATTCGCTTGACGCTGCTG
`TTAGGGCTGGGGTATCGGTTAGTGCTA` — result for “fitted relative affinity”: -0.798 z-score.
`TCAGGACTGGACTATCGGTTAGTGCTA`: “fitted relative affinity” -0.208 z-score.
`TCAAGTCCCAAGAATGGTACTGTGCTA`: “fitted relative affinity” -0.0149 z-score.
Under “fitted relative affinity”, `GACGGACTCGGTATCGGGACGTGCTAG` is recorded as -0.0449 z-score.
Under “fitted relative affinity”, `TTAGGACTGAACACTGGGTTAGTGCTA` is recorded as -0.734 z-score.
For `TTAGGACTGGACACTGGGTTTGTGCTA`, “fitted relative affinity” read -0.542 z-score.
For `TGGGATTTTCCCATGAGTCTGTGCTAG`, “fitted relative affinity” read 0.261 z-score.
`GACGATATCAGTATCCAGACGTGCTAG`: “fitted relative affinity” 0.445 z-score.
Under “fitted relative affinity”, `CTGCCTGTCCATTCCTTCCAGTGCTAG` is recorded as 1.66 z-score.
Under “fitted relative affinity”, `TTAGGACTGCTCCTCCTTTAGTGCTAG` is recorded as 0.621 z-score.
For `GACGGTTTCGGGTATCGGGAAGTGCTA`, “fitted relative affinity” read 6.08 z-score.
Under “fitted relative affinity”, `TTAGGTATCGACTTTCGGTTAGTGCTA` is recorded as 6.03 z-score.
`TTAGGACTGGGTTCCGGTTAGTGCTAG` — result for “fitted relative affinity”: -0.0588 z-score.
For `TCATTTCTCTGTTCTAGACTGTGCTAG`, “fitted relative affinity” read 2.76 z-score.
`TTAGGCATCGGTTTCGGTTAGTGCTAG` — result for “fitted relative affinity”: 6.3 z-score.
`TTAGATATCCGTTTCGATTAGTGCTAG` — result for “fitted relative affinity”: 3.23 z-score.
For `TCAATTTTGAGACTCATACTGTGCTAG`, “fitted relative affinity” read 0.248 z-score.
`TCAGGTTTCACTTTAAAACTGTGCTAG` — result for “fitted relative affinity”: 4.78 z-score.
`TTAGGACTGGGTCACGGTTAGTGCTAG`: “fitted relative affinity” -0.641 z-score.

Set 3
Target: Histone acetyltransferase KAT6A, winged helix 1, GST fusion (KAT6A, Homo sapiens, UniProt Q92794, residues 1-85)
Method: protein binding microarray
Form: double-stranded DNA, one strand shown
Medium: in vitro
Tested at: not given
Setting: 8-mer, flanks averaged, mean of 2 arrays, mostly near background
Baseline: not given
Reading: higher = stronger binding
Target sequence (chain): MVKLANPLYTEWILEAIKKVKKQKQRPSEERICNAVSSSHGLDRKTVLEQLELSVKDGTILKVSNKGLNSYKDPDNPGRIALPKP
`CGTCTGGA` gave an E-score of 0.00473.
`ACTGCTAT` gave an E-score of -0.0154.
With `AGTATCGC` the E-score was 0.0619.
`CTTATGTC` gave an E-score of -0.0824.
For `GCCGGATA`, the E-score was 0.275.
`CCCGAGCA` gave an E-score of -0.13.
With `GGTAACAA` the E-score was -0.0439.
`AAGTACAT` has an E-score of -0.0938.
`GTACAGAC` gave an E-score of 0.0243.
The E-score of `GTAGCGAA` is reported as -0.00855.
`AGACACAC` gave an E-score of -0.196.
With `GATCTTCC` the E-score was -0.024.
The E-score of `CACAGCCC` is reported as -0.0647.
With `GGATATAA` the E-score was -0.257.
`CGAACATC` has an E-score of 0.0777.
With `AGAATCCT` the E-score was -0.18.
`GACTAGCC` gave an E-score of 0.0525.
`ACGAGACC` gave an E-score of 0.0342.
For `CTAAGGCC`, the E-score was 0.0929.

Set 4
Target: RNA binding protein fox-1 homolog 2, RRM domain, GST-SBP tag (RBFOX2, Homo sapiens, UniProt O43251-10, residues 100-194)
Method: RNA Bind-n-Seq
Form: RNA
Medium: in vitro
Tested at: 365 nM
Setting: natural RNA segment, single round, ends assumed
Baseline: no-protein control
Reading: higher = stronger binding
Under “RBNS enrichment (R)”, `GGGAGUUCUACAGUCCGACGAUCAAACACAAGCAAAACAACAAAAUUAAUAAUCUGACGGAGGGGAAUUCUAGAAUUAUAUGCUAAAUGCAUAUUUUAUGAUUUGCUGUAUUAACUGAUGAUAAAACUAAUGGUGGAAUUCUCGGGUGCCAA` is recorded as 1.08.
Under “RBNS enrichment (R)”, `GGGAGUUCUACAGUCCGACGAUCAAAACUUUGAAAGUUUCUUUCUUUAAAAUGGGAAAUACUCAAUAUCUAAAUCCAGGUCAGGCAUGGGAUAUCAGUAUUUAACAUUGGAUGUUUUAUGUUUUAUAUUUAUAUGGAAUUCUCGGGUGCCAA` is recorded as 3.85.
`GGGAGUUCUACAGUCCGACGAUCUUAUAACCUAUCUUAGAGAAAUGAGUGCUGGUUUUGAGAGUUGUUUUUUAACUGAAAGAUUAUUUCUAGAUGGGUAGUGCUUUGUGCUGGUUUCUGCUUCCAUAUAUUUCUGGAAUUCUCGGGUGCCAA`: “RBNS enrichment (R)” 0.571.
Under “RBNS enrichment (R)”, `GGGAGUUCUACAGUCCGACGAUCAGUUAAUAGUCUAUUAUUUUAUGUCUAUUGAUUUUCAUUGUUAAUGUGAAAUGGUUAUUUAUACUUAUAGAAAGUUUGUGAAAUUUGCACAGUUGUCUUUCAAAGGAUAGUGGAAUUCUCGGGUGCCAA` is recorded as 0.527.
For `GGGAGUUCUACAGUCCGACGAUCGCCACUUAAUUAAGAUAAAAAUGCUUAGUUAUUUAUGUUAGUAUCUAGCUUUUAAAGAACUACAUGUGUCUUUAAAAGUAUUUAUUGUGCAAAUGUACUAUAGCAGUUCAUGGAAUUCUCGGGUGCCAA`, “RBNS enrichment (R)” read 0.455.
Under “RBNS enrichment (R)”, `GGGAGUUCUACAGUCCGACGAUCACCCACAGAACACUGUGAGUGGUGAGCACCAAGAUGGGUUGCCAGCCUCAUUUGCUCUUUGAACGAACCAACAUUAGCCAGUGGAGACGACUGUCUGAGACAGUUUGCACUGGAAUUCUCGGGUGCCAA` is recorded as 0.447.
For `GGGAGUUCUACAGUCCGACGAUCUGGUGGCUAGGAAGGCAGAGCGCCCUCAGCCCAGCAUAUAGCUGUGAGUAUGUAAUAAAUCACUGCCGGCUCCUGUGGCUCGUUCAUUCUGCUCCUCCCCCACCCCCACCUGGAAUUCUCGGGUGCCAA`, “RBNS enrichment (R)” read 0.707.
Under “RBNS enrichment (R)”, `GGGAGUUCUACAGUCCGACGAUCCCUGUCACAGCGGCUGCAAACAGUGGCAUCCUUGAGCAGCAAGAUGGGCGCCUGGGUGUGGUCUUGUUAAAUCGGUGUCGCACAUUUUAAUCGGUAAUCUGCUGGCUUGUUGGAAUUCUCGGGUGCCAA` is recorded as 0.876.

A few entries again (set 2):
`TTAGGCATCGGTTTCGGTTAGTGCTAG` — result for “fitted relative affinity”: 6.3 z-score.
`TTAGATATCCGTTTCGATTAGTGCTAG` — result for “fitted relative affinity”: 3.23 z-score.
For `TCAATTTTGAGACTCATACTGTGCTAG`, “fitted relative affinity” read 0.248 z-score.
`TCAGGTTTCACTTTAAAACTGTGCTAG` — result for “fitted relative affinity”: 4.78 z-score.
